Experimental data pooled from the literature.
Each line is one published result; not all experiments were run side by side.
Organism: Staphylococcus aureus

| SMILES | test | system | setting | how to read | MIC |
| --- | --- | --- | --- | --- | --- |
| C/C(=N\Nc1nc(-c2ccccc2)cs1)c1ccc2c(c1)sc1nc(=O)c(C#N)cn12 | microbial growth, broth dilution | – | – | – | < 50 µg/mL |
| CNC(CC(C)C)C(=O)NC1C(=O)NC(CC(N)=O)C(=O)NC2C(=O)NC3C(=O)NC(C(=O)NC(C(=O)O)c4cc(O)cc(O)c4-c4cc3ccc4O)C(O)c3ccc(c(Cl)c3)Oc3cc2cc(c3OC2OC(CO)C(O)C(O)C2OC2CC(C)(NC(=O)CCCC[N+]3(C)CCOCC3)C(O)C(C)O2)Oc2ccc(cc2Cl)C1O (stereo not shown) | agar dilution | MRSA clinical isolate MRSA4 | – | – | 256 µg/mL |
| CN(C)c1cc(CNCc2ccccc2)c(O)c2c1C[C@H]1C[C@H]3[C@H](N(C)C)C(O)=C(C(N)=O)C(=O)[C@@]3(O)C(O)=C1C2=O | – | MRSA 5, Tet M, 50% human serum | – | – | 32 µg/mL |
| CCCCCCCCCc1nc2cc(Cl)ccc2c(=O)n1CCN | broth microdilution | RN6390B | – | – | 12.5 µM |
| CC(C)C[C@H](NC(=O)[C@H](CC(N)=O)NC(=O)[C@H](CCCNC(=N)N)NC(=O)[C@@H](CC(C)C)NC(=O)[C@H](Cc1ccc(-c2ccccc2)cc1)NC(=O)[C@H](CC(=O)O)NC(=O)[C@H](CCCCN)NC(=O)[C@@H](CC(C)C)NC(=O)[C@H](CCCNC(=N)N)NC(=O)[C@H](CCC(N)=O)NC(=O)[C@@H](NC(=O)[C@@H](CC(C)C)NC(=O)[C@H](CCCNC(=N)N)NC(=O)[C@H](CCCCN)NC(=O)[C@H](Cc1ccc(-c2ccccc2)cc1)NC(=O)CN)C(C)C)C(=O)N[C@H](C(N)=O)C(C)C | broth microdilution | USA300 LAC, MRSA | – | – | 3.1 µM |
| COc1ccc(NC(=O)C2C(=O)C(c3ccccc3)c3ccc4c(c32)C(=O)c2ccccc2C4=O)cc1 (stereo not shown) | microbial growth | – | – | – | > 100 µg/mL |
| CC(CCCOC(=O)CCC[N+](C)(C)C)C1CCC2C3CCC4CC(OC(=O)CCC[N+](C)(C)C)CCC4(C)C3CCC12C (stereo not shown) | – | ATCC 29213 | 16 h, 37 °C | – | < 0.5 µg/mL |
| C[n+]1ccc(/C=C2\Sc3ccccc3N2CCCN2CCCC2)c2ccccc21 | microbial growth, broth dilution | ATCC29213 | – | – | 32 µg/mL |
| Cc1cc([N+](=O)[O-])ccc1NC(=O)CSc1nc2ccccc2c(=O)n1-c1ccc(S(N)(=O)=O)cc1 | – | methicillin-resistant | 24 h, 37 °C | – | 5 µg/mL |
| CN(C)c1cc(CNC2CCCC2)c(O)c2c1C[C@H]1C[C@H]3[C@H](N(C)C)C(O)=C(C(N)=O)C(=O)[C@@]3(O)C(O)=C1C2=O | microbial growth | MRSA | – | – | 0.5 µg/mL |
| CCc1[nH]c(C(=O)N[C@@H]2CCN(c3nnc(C(C)(C)O)s3)C[C@@H]2OC)nc1Cl | – | ATCC 43300 | – | – | 0.5 µg/mL |
| CC(C)C[C@H](NC(=O)[C@H](CC(C)C)NC(=O)[C@H](CCCCN)NC(=O)[C@@H]1CCCN1C(=O)[C@H](CC(C)C)NC(=O)[C@H](CC(C)C)NC(=O)[C@H](CCCCN)NC(=O)[C@H](CC(C)C)NC(=O)[C@H](CC(C)C)NC(=O)[C@H](CO)NC(=O)CNC(=O)[C@H](CC(C)C)NC(=O)[C@@H](N)CC(C)C)C(N)=O | broth microdilution | USA300 MRSA | – | – | 0.78 to 1.56 µM |
| CC(C)=CCc1cc(-c2coc3cc(O)c(CC=C(C)C)c(O)c3c2=O)ccc1O | – | ATCC 25923 | – | – | 128 µg/mL |
| CN(C)c1cc(CN2CCCCC2)c(O)c2c1C[C@H]1C[C@H]3[C@H](N(C)C)C(O)=C(C(N)=O)C(=O)[C@@]3(O)C(O)=C1C2=O | – | MRSA 5, Tet M, 50% mouse serum | – | – | 1 µg/mL |
| NC[C@@H]1O[C@H](O[C@H]2[C@@H](O)[C@H](O[C@@H]3[C@@H](O)[C@H](N)C[C@H](N)[C@H]3O[C@H]3O[C@H](CO)[C@@H](OCCO)[C@H](O)[C@H]3N)O[C@@H]2CO)[C@H](N)[C@@H](O)[C@@H]1O | broth microdilution | MRSA isolate AG 044 | – | – | 32 to 64 µg/mL |
| CCn1cc(C(=O)NCCNCCO)c(=O)c2cc(OC)c(OCc3cccc(F)c3)cc21 | – | ATCC 43300 MRSA | – | ≥80% growth inhibition | > 32 µg/mL |

| SMILES | test | system | setting | how to read | MIC |
| --- | --- | --- | --- | --- | --- |
| CCOC(=O)c1ccc2c(c1)n(CC)[c]([Au-]([Cl])([Cl])[Cl])[n+]2CC | broth dilution | MRSA DSM 11822 | 20 h, 37 °C | – | 1.8 µM |
| CN(C)c1cc(CNC(=O)OCC(C)(C)C)c(O)c2c1C[C@H]1C[C@H]3[C@H](N(C)C)C(O)=C(C(N)=O)C(=O)[C@@]3(O)C(O)=C1C2=O | – | RN4250, Tet K efflux | – | – | 2 µg/mL |
| CCCCCCSCC1OC(OC2C(N)CC(N)C(OC3OC(CN)C(O)CC3N)C2O)C(O)C(N)C1O (stereo not shown) | – | methicillin-resistant | – | – | > 150 µg/mL |
| CNC(CC(C)C)C(=O)NC1C(=O)NC(CC(N)=O)C(=O)NC2C(=O)NC3C(=O)NC(C(=O)NC(C(=O)O)c4cc(O)cc(O)c4-c4cc3ccc4O)C(O)c3ccc(c(Cl)c3)Oc3cc2cc(c3OC2OC(CO)C(O)C(O)C2OC2CC(C)(NC(=O)CCCCCC[N+](C)(C)Cc3ccccc3)C(O)C(C)O2)Oc2ccc(cc2Cl)C1O (stereo not shown) | agar dilution | MRSA clinical isolate MRSA4 | – | – | 256 µg/mL |
| c1ccc(CN2CCOCCOCCN(CCCCCCCCCCN3CCOCCOCCN(CCCCCCCCCCN4CCOCCOCCN(Cc5ccccc5)CCOCCOCC4)CCOCCOCC3)CCOCCOCC2)cc1 | microbial growth | MRSA | – | – | 6 µM |
| CCC1(C)CCN(Cc2cc(N(C)C)c3c(c2O)C(=O)C2=C(O)[C@]4(O)C(=O)C(C(N)=O)=C(O)[C@@H](N(C)C)[C@@H]4C[C@@H]2C3)CC1 | – | MRSA 5, Tet M, 50% mouse serum | – | – | 8 µg/mL |
| CC(C)SC1COC(=O)N1/N=C/c1ccc([N+](=O)[O-])o1 (stereo not shown) | microbial growth, broth dilution | ATCC29213 | 18 h | – | 12.5 µg/mL |
| CN(Cc1cc(N(C)C)c2c(c1O)C(=O)C1=C(O)[C@]3(O)C(=O)C(C(N)=O)=C(O)[C@@H](N(C)C)[C@@H]3C[C@@H]1C2)CC(C)(C)C | – | MRSA 5, Tet M, 50% mouse serum | – | – | 32 µg/mL |
| CC1C=CC=CC(C)C2C=CC3CC(C)(Cl)C(O)C(C)C3C2C(=O)C(Cl)(Cl)C(=O)C(C)C(=O)O1 (stereo not shown) | microbial growth, broth dilution | NEWMAN | – | – | 0.05 µg/mL |
| CN(C)c1cc(CN2CCCC2)c(O)c2c1C[C@H]1C[C@H]3[C@H](N(C)C)C(O)=C(C(N)=O)C(=O)[C@@]3(O)C(O)=C1C2=O | microbial growth, broth dilution | – | – | – | 2 µg/mL |
| Oc1c(Br)c(Cl)c(Br)c2nc3c(C(F)(F)F)cc(C(F)(F)F)cc3nc12 | broth microdilution | MRSA 44 | – | – | 0.78 µM |
| CCN(CC)CCCN1/C(=C/c2cc[n+](C)c3ccccc23)Sc2ccccc21 | microbial growth, broth dilution | ATCC29213 | – | – | 2 µg/mL |
| CN[C@H](CC(C)C)C(=O)N[C@H]1C(=O)N[C@@H](CC(N)=O)C(=O)N[C@H]2C(=O)N[C@H]3C(=O)N[C@H](C(=O)N[C@H](C(=O)O)c4cc(O)cc(O)c4-c4cc3ccc4O)[C@H](O)c3ccc(c(Cl)c3)Oc3cc2cc(c3O[C@@H]2O[C@H](CO)[C@@H](O)[C@H](O)[C@H]2O[C@H]2C[C@](C)(N)[C@H](O)[C@H](C)O2)Oc2ccc(cc2Cl)[C@H]1O | microbial growth, broth dilution | NCTC8325 | 20 h | – | 1 µg/mL |
| CO[C@H]1[C@H](O)[C@@H](N)[C@@H](O[C@H]2[C@H](O[C@@H]3O[C@H](CO)[C@@H](O[C@H]4O[C@@H](CN)[C@@H](O)[C@H](O)[C@H]4N)[C@H]3O)[C@@H](O)[C@H](N)C[C@@H]2N)O[C@@H]1CO | broth microdilution | MRSA isolate AG 042 | – | – | 32 µg/mL |
| CCCCCCN1C(=O)/C(=N\NC(=N)N)c2cc(C)ccc21 | microbial growth, broth dilution | – | 18 h | – | 12 µg/mL |
